Results from different studies.
Compare with care: the assays were run in different laboratories. Several values in a cell are separate wells, animals, samples, runs or records. Numbers after ± are the reported error.
PCNA: PCNA (Homo sapiens, UniProt P12004)
Chain of UniProt P12004 (whole entry, looked up): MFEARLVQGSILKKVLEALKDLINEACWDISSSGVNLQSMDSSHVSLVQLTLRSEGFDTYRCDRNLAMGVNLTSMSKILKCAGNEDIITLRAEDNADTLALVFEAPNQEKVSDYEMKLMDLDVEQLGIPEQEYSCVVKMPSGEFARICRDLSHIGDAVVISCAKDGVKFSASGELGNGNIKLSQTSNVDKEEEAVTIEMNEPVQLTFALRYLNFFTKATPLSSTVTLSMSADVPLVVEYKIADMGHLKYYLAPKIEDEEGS
Crebbp: Crebbp 340-439 (Mus musculus, UniProt P45481)
Chain of UniProt P45481 (whole entry, looked up): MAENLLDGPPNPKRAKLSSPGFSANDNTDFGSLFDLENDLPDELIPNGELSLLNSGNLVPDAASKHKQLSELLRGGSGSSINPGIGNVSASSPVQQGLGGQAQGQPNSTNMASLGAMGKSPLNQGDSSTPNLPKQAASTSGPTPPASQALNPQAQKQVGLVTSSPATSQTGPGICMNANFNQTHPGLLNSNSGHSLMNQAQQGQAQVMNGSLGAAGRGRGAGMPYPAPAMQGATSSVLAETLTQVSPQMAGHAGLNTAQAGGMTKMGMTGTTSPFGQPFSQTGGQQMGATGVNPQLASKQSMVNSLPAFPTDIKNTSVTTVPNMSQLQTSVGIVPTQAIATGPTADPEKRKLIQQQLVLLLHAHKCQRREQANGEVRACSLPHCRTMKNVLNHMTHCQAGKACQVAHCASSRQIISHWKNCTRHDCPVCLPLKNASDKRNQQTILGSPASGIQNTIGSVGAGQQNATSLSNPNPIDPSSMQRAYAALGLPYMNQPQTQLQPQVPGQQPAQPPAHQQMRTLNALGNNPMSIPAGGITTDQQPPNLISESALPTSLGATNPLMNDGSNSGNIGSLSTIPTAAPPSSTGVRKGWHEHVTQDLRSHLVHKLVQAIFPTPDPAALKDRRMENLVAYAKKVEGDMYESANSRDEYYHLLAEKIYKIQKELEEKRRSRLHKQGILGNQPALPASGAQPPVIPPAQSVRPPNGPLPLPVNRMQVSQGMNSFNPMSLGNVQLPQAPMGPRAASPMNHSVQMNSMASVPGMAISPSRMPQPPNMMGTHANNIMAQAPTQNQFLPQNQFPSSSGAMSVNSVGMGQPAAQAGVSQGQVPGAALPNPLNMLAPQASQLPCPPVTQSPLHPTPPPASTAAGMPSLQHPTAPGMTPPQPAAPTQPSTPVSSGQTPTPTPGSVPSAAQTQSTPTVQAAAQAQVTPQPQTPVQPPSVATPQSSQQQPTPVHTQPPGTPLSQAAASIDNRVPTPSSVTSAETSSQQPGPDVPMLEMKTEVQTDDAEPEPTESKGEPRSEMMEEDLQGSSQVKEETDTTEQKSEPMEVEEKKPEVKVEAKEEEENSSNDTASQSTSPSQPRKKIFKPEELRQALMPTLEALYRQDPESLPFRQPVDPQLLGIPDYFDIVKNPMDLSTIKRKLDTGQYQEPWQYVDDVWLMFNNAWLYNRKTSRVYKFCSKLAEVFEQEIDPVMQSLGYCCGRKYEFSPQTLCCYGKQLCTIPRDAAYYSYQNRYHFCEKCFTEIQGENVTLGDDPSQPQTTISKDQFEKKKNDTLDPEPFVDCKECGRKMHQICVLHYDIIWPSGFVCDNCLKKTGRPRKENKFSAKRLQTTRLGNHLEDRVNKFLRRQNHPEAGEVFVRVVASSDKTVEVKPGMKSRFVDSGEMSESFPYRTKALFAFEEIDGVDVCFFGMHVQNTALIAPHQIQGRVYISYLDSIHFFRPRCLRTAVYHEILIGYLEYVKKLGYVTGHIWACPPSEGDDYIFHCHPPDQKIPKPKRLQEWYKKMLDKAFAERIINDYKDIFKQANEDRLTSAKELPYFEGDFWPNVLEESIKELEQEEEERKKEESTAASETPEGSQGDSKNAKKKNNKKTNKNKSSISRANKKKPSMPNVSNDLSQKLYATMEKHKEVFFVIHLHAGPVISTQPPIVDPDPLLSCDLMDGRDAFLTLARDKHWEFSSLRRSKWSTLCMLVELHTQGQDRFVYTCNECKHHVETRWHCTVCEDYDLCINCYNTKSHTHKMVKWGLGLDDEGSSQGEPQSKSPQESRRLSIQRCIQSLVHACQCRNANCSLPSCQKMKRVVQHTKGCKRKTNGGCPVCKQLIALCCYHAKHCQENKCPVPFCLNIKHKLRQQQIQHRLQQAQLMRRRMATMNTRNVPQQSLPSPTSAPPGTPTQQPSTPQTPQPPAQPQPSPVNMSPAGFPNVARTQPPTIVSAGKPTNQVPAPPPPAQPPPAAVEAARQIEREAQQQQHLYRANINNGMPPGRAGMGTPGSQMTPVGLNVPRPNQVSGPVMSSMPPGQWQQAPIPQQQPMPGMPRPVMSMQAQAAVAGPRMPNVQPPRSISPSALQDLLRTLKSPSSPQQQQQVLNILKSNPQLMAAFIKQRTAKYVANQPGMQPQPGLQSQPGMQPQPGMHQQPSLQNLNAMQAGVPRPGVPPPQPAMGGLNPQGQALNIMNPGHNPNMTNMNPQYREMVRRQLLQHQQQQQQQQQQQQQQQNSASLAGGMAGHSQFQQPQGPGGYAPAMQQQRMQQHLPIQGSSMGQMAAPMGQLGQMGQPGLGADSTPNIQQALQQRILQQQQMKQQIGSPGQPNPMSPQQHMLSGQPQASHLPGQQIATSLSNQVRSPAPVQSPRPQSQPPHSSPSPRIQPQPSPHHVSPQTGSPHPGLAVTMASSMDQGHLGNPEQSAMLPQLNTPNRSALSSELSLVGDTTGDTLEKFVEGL
BCL2L1: BCL2L1 fragment (Homo sapiens)
KEAP1: KEAP1 321-609 (Homo sapiens, UniProt Q14145)
Chain of UniProt Q14145 (whole entry, looked up): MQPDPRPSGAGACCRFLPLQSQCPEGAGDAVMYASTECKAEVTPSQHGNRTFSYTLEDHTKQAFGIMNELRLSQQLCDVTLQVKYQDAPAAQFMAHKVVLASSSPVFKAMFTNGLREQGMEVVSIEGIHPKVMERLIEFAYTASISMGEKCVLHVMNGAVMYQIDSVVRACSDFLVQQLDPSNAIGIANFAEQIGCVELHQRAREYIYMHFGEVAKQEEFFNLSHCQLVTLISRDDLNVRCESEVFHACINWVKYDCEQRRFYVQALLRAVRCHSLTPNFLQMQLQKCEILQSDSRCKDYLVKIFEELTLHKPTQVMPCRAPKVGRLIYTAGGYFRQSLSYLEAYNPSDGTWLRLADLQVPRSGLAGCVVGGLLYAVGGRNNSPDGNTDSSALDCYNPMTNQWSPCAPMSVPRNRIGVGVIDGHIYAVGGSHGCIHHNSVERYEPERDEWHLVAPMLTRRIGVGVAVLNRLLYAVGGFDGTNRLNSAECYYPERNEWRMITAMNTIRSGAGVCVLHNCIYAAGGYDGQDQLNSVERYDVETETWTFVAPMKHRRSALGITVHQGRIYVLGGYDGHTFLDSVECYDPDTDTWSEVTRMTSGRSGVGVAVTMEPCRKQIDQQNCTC
PPARG: PPARG 202-477 (Homo sapiens, UniProt P37231-2)
IRF2BP2: IRF2BP2 fragment (Homo sapiens)
Mcl1 152-308: Mcl1 152-308 (Mus musculus, UniProt P97287)
Chain of UniProt Q09822 (whole entry, unmodified, looked up): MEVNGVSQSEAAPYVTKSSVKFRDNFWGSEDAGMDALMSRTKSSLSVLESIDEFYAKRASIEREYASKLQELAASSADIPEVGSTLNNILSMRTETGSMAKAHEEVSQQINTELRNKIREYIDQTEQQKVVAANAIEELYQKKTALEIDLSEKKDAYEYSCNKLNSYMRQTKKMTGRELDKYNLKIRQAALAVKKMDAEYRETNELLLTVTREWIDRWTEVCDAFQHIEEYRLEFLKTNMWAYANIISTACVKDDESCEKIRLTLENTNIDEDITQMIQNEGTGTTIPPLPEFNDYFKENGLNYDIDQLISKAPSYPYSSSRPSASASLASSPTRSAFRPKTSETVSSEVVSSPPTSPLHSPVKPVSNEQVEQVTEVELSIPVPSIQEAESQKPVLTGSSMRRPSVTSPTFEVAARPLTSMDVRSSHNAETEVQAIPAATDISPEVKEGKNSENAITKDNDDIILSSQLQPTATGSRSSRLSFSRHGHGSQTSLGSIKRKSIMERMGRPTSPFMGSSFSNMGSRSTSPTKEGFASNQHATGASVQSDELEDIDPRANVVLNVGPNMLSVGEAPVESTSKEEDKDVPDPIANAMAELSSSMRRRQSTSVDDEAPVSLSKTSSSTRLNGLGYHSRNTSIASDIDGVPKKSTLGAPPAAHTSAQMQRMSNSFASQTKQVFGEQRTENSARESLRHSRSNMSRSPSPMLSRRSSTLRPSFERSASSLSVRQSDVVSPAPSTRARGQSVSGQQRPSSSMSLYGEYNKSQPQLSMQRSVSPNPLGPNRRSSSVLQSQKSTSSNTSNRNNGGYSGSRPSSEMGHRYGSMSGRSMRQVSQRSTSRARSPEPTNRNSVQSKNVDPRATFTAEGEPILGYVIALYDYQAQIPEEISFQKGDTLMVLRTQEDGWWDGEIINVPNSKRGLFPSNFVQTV
Chain of UniProt Q9NWS0 (whole entry, looked up): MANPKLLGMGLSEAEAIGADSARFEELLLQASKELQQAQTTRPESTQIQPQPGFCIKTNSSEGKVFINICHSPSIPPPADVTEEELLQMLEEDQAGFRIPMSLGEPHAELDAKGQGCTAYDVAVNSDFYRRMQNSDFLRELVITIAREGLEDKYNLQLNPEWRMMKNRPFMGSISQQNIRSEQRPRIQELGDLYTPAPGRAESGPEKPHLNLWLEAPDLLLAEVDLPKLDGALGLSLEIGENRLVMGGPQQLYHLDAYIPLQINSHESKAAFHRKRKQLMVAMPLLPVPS
Chain of UniProt P97287 (whole entry, looked up): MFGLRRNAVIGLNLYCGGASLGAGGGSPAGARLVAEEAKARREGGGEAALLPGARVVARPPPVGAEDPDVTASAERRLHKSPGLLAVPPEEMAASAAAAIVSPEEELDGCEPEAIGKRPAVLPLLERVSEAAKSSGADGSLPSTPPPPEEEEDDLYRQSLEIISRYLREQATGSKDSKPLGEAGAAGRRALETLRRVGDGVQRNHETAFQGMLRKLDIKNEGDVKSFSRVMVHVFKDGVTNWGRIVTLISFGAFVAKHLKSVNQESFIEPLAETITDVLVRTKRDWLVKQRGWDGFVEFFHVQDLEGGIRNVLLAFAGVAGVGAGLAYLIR

`KRRQTSMEDFYHSKR (CDKN1A residues 141-155 T148E; C-terminal amide)` gave a Kd of 77.4 nM (PCNA; SPR; peptide).
`TPTPSARRTIGPRAPKSKTTY (Cdc12 residues 20-40 (Schizosaccharomyces pombe))` gave a Kd of 4700 nM and 6900 nM and 3500 nM (cdc15 19-312 E30K/E152K (Schizosaccharomyces pombe, UniProt Q09822); ITC; peptide).
The Kd of `SDLACRLLGQSMDESGLPQLTSYDCEVNAPIQGSGSGSGSGSRNLLQGEELLRALDQVN (HIF1A 776-826 807-811 replaced by (GS)4 (Homo sapiens, UniProt Q16665); sequence looked up)` is reported as 160 nM (Crebbp; fluorescence polarisation).
`RVYPVSVPYSSAQSTSKTSVTLSLVMPSQ (Tab1 residues 384-412 (Mus musculus))` has a Kd of 3400 nM (Mapk14 I275G (Mus musculus, UniProt P47811); ITC; peptide).
`NLWAAQRYGRELRRMSDEFVDSFKK (BAD BH3 peptide (Homo sapiens); N-acetyl, C-terminal amide)` gave a Kd of 0.2 nM (BCL2L1; ITC; peptide).
`GLFSDEEDSEDLFSSQS (WASHC2A 536-552 (Homo sapiens))` has a Kd of 29200 ± 280 nM (SNX27 fragment (Homo sapiens); ITC; peptide).
The Kd of `FAQLQLDEETGEFLPIQPAQ (NFE2L2 71-90; N-acetyl, C-terminal amide)` is reported as 24 nM (KEAP1; ITC; peptide).
`HRK BH3 peptide, N-acetyl, C-terminal amide (Homo sapiens) (sequence not shown)` has a Kd of 30 nM (BCL2L1; ITC).
For `NLFDDNIDIFADLT (WASHC2A 1261-1274 (Homo sapiens))`, the Kd was 6960 ± 120 nM (SNX27 (Homo sapiens, UniProt Q96L92-3); ITC; peptide).
`YIKTPLGTFPNRHGC (engineered peptide)` has a Kd of 96 ± 1 nM (VPS35/VPS26A/VPS29 retromer complex (Homo sapiens); ITC; peptide).
With `LTARHKILHRLLQEGSPSD (NCOA1 peptide; N-terminal 5-FAM)` the Kd was 76900 nM and 51800 nM (PPARG; FP; peptide).
`SDLACRLLGQSMDESGLPQLTSYDCEVNAPIQGSGSRNLLQGEELLRALDQVN (HIF1A 776-826 807-811 replaced by GS linker (Homo sapiens, UniProt Q16665); sequence looked up)` gave a Kd of 70 nM (Crebbp; fluorescence polarisation).
`CLIC4 NLS peptide (Homo sapiens) (sequence not shown)` gave a Kd of 309000 ± 15100 nM (KPNA2 fragment (Homo sapiens); fluorescence titration).
For `SSASSEDYIIILPECFDTSRPLGDS (NBR1 725-749 (UniProt Q14596); FITC label)`, the Kd was 16700 ± 3220 nM (RB1CC1 1490-1594 (Homo sapiens, UniProt Q8TDY2); FP; peptide).
For `GRGRGRGRGRGRGRGRGRGRGRGRGRGRGRGRGRGRGRGRGRGRGRGRGRGRGRGRGRGR (poly-GR 30 repeats)`, the Kd was 0.76 nM (G3BP1 1-411 (Homo sapiens, UniProt Q13283); BLI; peptide).
With `YWISNSWTTYRYVSTC (engineered peptide)` the Kd was 491 ± 27 nM (Vps26b/VPS35 VPS35 (Mus musculus; Homo sapiens); ITC; peptide).
For `RNNIKQAANNSLLLHLLKSQTIP (NRIP1 peptide; N-terminal 5-FAM)`, the Kd was 2140 nM (PPARG; FP; peptide).
`YAGSDSDLDSDDEFVPY (TELO2 483-497 (Homo sapiens); pS487)` gave a Kd of 30100 nM (PIH1D1 1-180 (Homo sapiens, UniProt Q9NWS0); ITC; peptide).
The Kd of `GPGTPTRSSVITSARELHYG (ZBTB16 residues 279-298 (Homo sapiens))` is reported as 7600 nM and 8580 nM and 5440 nM (IRF2BP2; ITC; peptide).
The Kd of `GKAPRKQLAT (histone H3 14-23 (UniProt P68431); acetylated K18; sequence looked up)` is reported as 630000 nM (YEATS4 19-159 (Homo sapiens, UniProt O95619); ITC; peptide).
With `Histone H3.1 fragment (Homo sapiens) (sequence not shown)` the Kd was 22800 ± 2220 nM (WDR5 fragment Y131A (Homo sapiens); ITC).
`QHWSYKLRPG (GNRH1 mature G6K (Homo sapiens); pGlu1, D-Lys6, sulfo-Cy5, C-terminal amide)` has a Kd of 7.8 nM (GNRHR (Homo sapiens, UniProt P30968); FRET or BRET; peptide).
With `EEEWAREFGAQLRRAADDLNAQYERRR (PUMA residues 130-156 M144A/I137F; N-acetyl, C-terminal amide)` the Kd was 17.7 ± 4.3 nM (Mcl1 152-308; SPR; peptide).
For `ERQQNRPSVITCASAG (VGLL4 residues 156-171 (Homo sapiens))`, the Kd was 1400 nM and 1040 nM and 1630 nM and 1550 nM (IRF2BP2; ITC; peptide).
`RPNESDSDDLDDY (ECD 499-510 (Homo sapiens); pS505)` has a Kd of 16100 nM (PIH1D1 1-180 (Homo sapiens, UniProt Q9NWS0); ITC; peptide).
With `KRRQTKMTDFYHSKR (CDKN1A residues 141-155 S146K; C-terminal amide)` the Kd was 13 nM (PCNA; SPR; peptide).
The Kd of `SLEEPHSPETGEKVVAGEVN (AMER1 280-299)` is reported as 1600 nM (KEAP1; ITC; peptide).
`PRPRPRPRPRPRPRPRPRPRPRPRPRPRPRPRPRPRPRPRPRPRPRPRPRPRPRPRPRPR (poly-PR 30 repeats)` has a Kd of 82.3 nM (NPM1 (Homo sapiens, UniProt P06748); BLI; peptide).
`SAKAADDPENGERESHTPVS (BPTF 584-603; N-acetyl, C-terminal amide)` gave a Kd of 980 nM (KEAP1; ITC; peptide).
For `NPFPLLEDEDDLFTDQK (WASHC2A 1197-1213 (Homo sapiens))`, the Kd was 31700 ± 570 nM (SNX27 fragment (Homo sapiens); ITC; peptide).
For `DLDSDDEY (TELO2 488-494 (Homo sapiens); pS491)`, the Kd was 10300 nM (PIH1D1 51-180 (Homo sapiens, UniProt Q9NWS0); ITC; peptide).
For `EEEWAREAGAQLRRAADDLNAQYERRR (PUMA residues 130-156 M144A/I137A; N-acetyl, C-terminal amide)`, the Kd was 19 ± 4 nM (Mcl1 152-308; SPR; peptide).
`SIFDDDMDDIFSSG (WASHC2A 1289-1302 (Homo sapiens))` gave a Kd of 19000 ± 280 nM (SNX27 (Homo sapiens, UniProt Q96L92-3); ITC; peptide).
With `SSFKYL (designed peptide; FITC label)` the Kd was 212000 nM (NHERF2 142-254 (Homo sapiens, UniProt Q15599-1); fluorescence intensity change, fluorescence titration; peptide).
`KRRQRSIMSFFHSKR (CDKN1A/LIG1 chimeric PIP-box peptide; C-terminal amide)` gave a Kd of 40.7 nM (PCNA; SPR; peptide).
`FSIVGSLPRDF (GLRB peptide 398-408)` gave a Kd of 2120 nM (Gphn (Rattus norvegicus, UniProt Q03555); competition titration, magnetic tweezers; peptide).
For `TSLFEEDEEDDLFAIAK (WASHC2A 662-678 (Homo sapiens))`, the Kd was 68800 ± 1270 nM (SNX27 (Homo sapiens, UniProt Q96L92-3); ITC; peptide).
The Kd of `ANGNANEENGEQEADNEVD (PTMA 35-53, isoform 2; N-acetyl, C-terminal amide)` is reported as 2930 nM (KEAP1; ITC; peptide).
The Kd of `PSSTMGQVGRQLAIIGDDINRRYDS (BAK1 BH3 peptide (Homo sapiens); N-acetyl, C-terminal amide)` is reported as 28 nM (BCL2L1; ITC; peptide).

Excerpt of the above:
With `LTARHKILHRLLQEGSPSD (NCOA1 peptide; N-terminal 5-FAM)` the Kd was 76900 nM and 51800 nM (PPARG; FP; peptide).
The Kd of `GKAPRKQLAT (histone H3 14-23 (UniProt P68431); acetylated K18; sequence looked up)` is reported as 630000 nM (YEATS4 19-159 (Homo sapiens, UniProt O95619); ITC; peptide).
